# Published values from different studies.
# Numbers after ± are the reported error.
Structure (SMILES),cell line,test,system,setting,how to read,IC50
N.N.O=C([O-])C1(C(=O)[O-])CCC1.[Pt+2],patient-derived organoid sample A,organoid viability,human,96 h,,96900 nM
Cc1cccc(N(C)C(=O)[C@@H]2[C@H](O)CCN2c2nc(C)cc(C(F)(F)F)c2C#N)c1,DLD-1 BRCA2-knockout,colony survival,,,,~2500 nM
COc1cc2c(O)c3c(c(-c4ccc5c(c4)OCO5)c2cc1OC)C(=O)N(/N=C/c1ccc(Cl)cc1)C3,HEK293,endosomal acidification,,,,9930 ± 140 nM
C#CC[N+]1(CC)CCc2c(sc(NC(=O)c3c(F)c(F)c(F)c(F)c3F)c2C(=O)OCC)C1.[Br-] (stereo not drawn),J774.A1,"cytotoxicity, resazurin",,"up to 200 µM, 18 h",,not toxic
COc1cc2c(O)c3c(c(-c4ccc5c(c4)OCO5)c2cc1OC)C(=O)N(/N=C/c1ccccc1)C3,HEK293,endosomal acidification,,4 h,,> 10000 nM
CN1CCN(S(=O)(=O)c2cc([N+](=O)[O-])ccc2N(CCOS(C)(=O)=O)CCOS(C)(=O)=O)CC1,sample H B-ALL PDX cells,cytotoxicity,,"48 h, BCP-ALL, ex vivo",,859 nM
COc1c(C)c2c(c(O)c1C/C=C(\C)CCC(=O)O)C(=O)OC2,SK-MEL-28,cell proliferation,skin cancer,,,692 nM
CC[C@H](C)[C@H](NC(=O)CN)C(=O)NCC(=O)N[C@@H](C)C(=O)N[C@H](C(=O)N[C@@H](CC(C)C)C(=O)N[C@@H](CCCCN)C(=O)N[C@H](C(=O)N[C@@H](CC(C)C)C(=O)N[C@H](C(=O)N[C@H](C(=O)NCC(=O)N[C@@H](CC(C)C)C(=O)N1CCC[C@H]1C(=O)N[C@@H](C)C(=O)N[C@@H](CC(C)C)C(=O)N[C@H](C(=O)N[C@@H](CO)C(=O)N[C@@H](Cc1c[nH]c2ccccc12)C(=O)N[C@H](C(=O)N[C@@H](CCCCN)C(=O)N[C@@H](CCCNC(=N)N)C(=O)N[C@@H](CCCCN)C(=O)N[C@@H](CCCNC(=N)N)C(=O)N[C@@H](CCC(N)=O)C(=O)N[C@@H](CCC(N)=O)C(N)=O)[C@@H](C)CC)[C@@H](C)CC)[C@@H](C)O)[C@@H](C)O)C(C)C)C(C)C,HCE-T,"cytotoxicity, MTT",,24 h,,7870 nM
COc1cc2c(OC)c3c(c(-c4ccc5c(c4)OCO5)c2cc1OC)C(=O)OC3,HEK293,endosomal acidification,,,,265 ± 58.6 nM
CC[C@@H](C)[C@H](N)C(=O)N1Cc2ccccc2C1,THP-1 CASP1 knock-out,"cell viability, CellTiter-Glo",,,relative to: DMSO,> 60000 nM
CC(=O)c1c(C)c2cnc(Nc3ccc(C4CCN(CCS(C)(=O)=O)CC4)cn3)nc2n(C2CCCC2)c1=O,"lymphoma, colorectal, breast cancer cells",cell proliferation,,range over tumour cell types,,143 to 545 nM
NC(=O)C1CCN(c2ccncc2)CC1,7dF3,"WNT reporter gene, inhibitor",,,,> 5000 nM
N.N.[Cl][Pt][Cl],A549/DDP cisplatin-resistant,MTT,,"48 h, together with: survivin siRNA 10 nM transfected 24 h before",,34100 ± 6520 nM
C#CCOc1c2c(c(-c3ccc4c(c3)OCO4)c3cc(OC)c(OC)cc13)C(=O)OC2,HEK293,endosomal acidification,,4 h,,263 ± 46.6 nM
COc1cc([C@@H]2c3cc4c(cc3C[C@H]3COC(=O)[C@@H]32)OCO4)cc(OC)c1OC,cells without MycN induction (no doxycycline),"cell growth, sulforhodamine B",,,,1.7 ng/mL

# Repeated from above:
Structure (SMILES),cell line,test,system,setting,how to read,IC50
COc1cc([C@@H]2c3cc4c(cc3C[C@H]3COC(=O)[C@@H]32)OCO4)cc(OC)c1OC,cells without MycN induction (no doxycycline),"cell growth, sulforhodamine B",,,,1.7 ng/mL
